Experimental data from different studies.
Numbered parts are unrelated; each lists some results of a single study.
UniProt Q8NE63, sequence (whole entry, looked up): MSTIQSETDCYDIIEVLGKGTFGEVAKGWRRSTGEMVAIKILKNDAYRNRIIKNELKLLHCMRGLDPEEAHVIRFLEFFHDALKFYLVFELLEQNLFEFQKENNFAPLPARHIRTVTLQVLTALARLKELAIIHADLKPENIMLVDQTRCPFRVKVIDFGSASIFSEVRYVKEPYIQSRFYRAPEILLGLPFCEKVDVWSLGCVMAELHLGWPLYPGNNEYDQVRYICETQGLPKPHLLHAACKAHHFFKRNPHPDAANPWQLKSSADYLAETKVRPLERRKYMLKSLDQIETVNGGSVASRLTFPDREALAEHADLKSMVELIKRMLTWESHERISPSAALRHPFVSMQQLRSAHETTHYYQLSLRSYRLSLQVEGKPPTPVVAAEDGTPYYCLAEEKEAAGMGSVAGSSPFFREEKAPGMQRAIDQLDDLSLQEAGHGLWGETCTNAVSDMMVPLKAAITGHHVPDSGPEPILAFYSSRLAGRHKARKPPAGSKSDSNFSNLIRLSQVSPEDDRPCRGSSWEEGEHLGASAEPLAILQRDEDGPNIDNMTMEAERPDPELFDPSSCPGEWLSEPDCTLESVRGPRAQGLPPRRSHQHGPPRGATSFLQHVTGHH
UniProt Q8NG66, sequence (whole entry, looked up): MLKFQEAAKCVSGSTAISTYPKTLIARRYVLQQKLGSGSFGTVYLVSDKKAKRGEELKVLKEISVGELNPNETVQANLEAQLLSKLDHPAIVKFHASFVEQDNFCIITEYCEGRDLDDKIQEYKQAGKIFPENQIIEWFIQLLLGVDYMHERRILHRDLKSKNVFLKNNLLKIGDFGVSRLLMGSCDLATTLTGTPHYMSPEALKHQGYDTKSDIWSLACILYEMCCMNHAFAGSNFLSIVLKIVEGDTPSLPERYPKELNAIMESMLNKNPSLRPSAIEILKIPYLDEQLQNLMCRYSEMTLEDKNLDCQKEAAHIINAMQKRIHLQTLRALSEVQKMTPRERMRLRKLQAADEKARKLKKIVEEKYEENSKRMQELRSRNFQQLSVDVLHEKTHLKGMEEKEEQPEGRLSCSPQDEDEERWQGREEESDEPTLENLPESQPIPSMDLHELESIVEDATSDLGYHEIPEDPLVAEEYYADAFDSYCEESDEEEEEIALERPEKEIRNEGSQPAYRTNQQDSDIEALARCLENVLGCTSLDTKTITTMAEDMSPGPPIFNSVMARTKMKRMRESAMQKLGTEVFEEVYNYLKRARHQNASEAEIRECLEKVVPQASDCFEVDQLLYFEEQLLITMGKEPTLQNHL
UniProt Q8IVW4, sequence (whole entry, looked up): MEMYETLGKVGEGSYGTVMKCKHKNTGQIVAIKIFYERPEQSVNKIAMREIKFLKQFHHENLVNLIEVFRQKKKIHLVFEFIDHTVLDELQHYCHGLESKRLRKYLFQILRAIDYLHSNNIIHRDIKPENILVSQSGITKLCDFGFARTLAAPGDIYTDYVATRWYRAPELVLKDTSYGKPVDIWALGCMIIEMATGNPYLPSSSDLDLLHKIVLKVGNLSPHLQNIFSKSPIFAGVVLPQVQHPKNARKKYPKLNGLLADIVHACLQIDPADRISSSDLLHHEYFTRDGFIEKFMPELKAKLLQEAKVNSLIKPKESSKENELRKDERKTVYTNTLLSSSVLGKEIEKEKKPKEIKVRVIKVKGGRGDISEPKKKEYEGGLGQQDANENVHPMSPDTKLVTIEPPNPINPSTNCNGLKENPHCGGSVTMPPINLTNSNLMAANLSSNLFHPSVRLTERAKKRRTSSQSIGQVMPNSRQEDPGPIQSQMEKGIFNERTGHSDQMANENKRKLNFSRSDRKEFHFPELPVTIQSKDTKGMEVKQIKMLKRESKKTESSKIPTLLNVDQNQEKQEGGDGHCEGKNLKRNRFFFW
UniProt Q9UEE5, sequence (whole entry, looked up): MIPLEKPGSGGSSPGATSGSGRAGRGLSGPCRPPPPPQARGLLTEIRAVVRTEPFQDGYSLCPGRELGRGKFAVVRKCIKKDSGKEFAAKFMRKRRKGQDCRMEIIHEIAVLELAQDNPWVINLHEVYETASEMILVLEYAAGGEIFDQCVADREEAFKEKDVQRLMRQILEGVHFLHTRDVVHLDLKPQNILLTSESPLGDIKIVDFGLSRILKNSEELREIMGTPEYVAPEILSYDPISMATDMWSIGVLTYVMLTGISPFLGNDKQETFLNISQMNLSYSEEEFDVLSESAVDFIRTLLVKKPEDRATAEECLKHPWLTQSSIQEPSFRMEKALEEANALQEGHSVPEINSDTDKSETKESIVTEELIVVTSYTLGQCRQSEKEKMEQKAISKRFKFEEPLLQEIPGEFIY
UniProt P19525, sequence (whole entry, looked up): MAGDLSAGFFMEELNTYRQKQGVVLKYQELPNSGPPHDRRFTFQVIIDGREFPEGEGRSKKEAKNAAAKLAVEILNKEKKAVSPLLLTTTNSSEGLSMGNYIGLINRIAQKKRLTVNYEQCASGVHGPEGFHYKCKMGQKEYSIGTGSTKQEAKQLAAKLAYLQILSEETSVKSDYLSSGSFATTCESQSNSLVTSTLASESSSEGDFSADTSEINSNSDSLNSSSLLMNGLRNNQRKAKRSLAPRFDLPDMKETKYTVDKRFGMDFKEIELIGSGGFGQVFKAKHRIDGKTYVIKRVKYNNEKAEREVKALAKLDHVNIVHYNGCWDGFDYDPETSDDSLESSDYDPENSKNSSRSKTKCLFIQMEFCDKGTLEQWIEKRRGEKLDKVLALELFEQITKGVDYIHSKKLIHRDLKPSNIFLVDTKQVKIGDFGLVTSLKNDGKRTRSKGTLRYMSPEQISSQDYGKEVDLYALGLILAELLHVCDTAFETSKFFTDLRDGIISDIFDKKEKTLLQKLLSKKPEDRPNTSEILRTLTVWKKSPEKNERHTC
UniProt P22612, sequence (whole entry, looked up): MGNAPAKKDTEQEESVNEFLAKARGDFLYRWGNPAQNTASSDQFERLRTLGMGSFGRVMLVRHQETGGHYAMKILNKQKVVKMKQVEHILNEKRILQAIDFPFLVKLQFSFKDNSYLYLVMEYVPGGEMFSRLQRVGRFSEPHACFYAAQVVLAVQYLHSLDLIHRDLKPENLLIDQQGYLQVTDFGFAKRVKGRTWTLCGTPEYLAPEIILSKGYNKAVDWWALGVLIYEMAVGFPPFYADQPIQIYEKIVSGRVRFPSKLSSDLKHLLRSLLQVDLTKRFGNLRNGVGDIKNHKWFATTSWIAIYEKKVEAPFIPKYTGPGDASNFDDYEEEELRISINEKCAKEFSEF
UniProt Q16644, sequence (whole entry, looked up): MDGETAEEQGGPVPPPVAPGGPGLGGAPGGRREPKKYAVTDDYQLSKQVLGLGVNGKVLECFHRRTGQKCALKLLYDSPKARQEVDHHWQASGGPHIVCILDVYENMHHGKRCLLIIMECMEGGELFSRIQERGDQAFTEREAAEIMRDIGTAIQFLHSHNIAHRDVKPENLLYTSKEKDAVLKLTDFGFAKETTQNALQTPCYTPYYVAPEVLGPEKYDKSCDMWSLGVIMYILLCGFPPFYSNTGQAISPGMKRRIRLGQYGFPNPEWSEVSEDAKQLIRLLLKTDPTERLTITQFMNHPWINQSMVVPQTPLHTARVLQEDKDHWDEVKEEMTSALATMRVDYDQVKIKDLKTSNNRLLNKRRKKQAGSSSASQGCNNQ
UniProt Q16816, sequence (whole entry, looked up): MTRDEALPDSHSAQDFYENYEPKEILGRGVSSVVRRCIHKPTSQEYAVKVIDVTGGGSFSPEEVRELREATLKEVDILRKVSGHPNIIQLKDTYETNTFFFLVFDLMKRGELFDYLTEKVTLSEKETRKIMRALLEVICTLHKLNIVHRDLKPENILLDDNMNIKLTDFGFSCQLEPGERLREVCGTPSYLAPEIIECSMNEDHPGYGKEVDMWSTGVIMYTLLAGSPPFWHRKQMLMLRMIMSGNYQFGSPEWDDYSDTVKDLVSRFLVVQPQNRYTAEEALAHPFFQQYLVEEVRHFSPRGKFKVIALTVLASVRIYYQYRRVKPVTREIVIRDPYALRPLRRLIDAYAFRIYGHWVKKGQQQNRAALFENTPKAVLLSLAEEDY
UniProt Q9UK32, sequence (whole entry, looked up): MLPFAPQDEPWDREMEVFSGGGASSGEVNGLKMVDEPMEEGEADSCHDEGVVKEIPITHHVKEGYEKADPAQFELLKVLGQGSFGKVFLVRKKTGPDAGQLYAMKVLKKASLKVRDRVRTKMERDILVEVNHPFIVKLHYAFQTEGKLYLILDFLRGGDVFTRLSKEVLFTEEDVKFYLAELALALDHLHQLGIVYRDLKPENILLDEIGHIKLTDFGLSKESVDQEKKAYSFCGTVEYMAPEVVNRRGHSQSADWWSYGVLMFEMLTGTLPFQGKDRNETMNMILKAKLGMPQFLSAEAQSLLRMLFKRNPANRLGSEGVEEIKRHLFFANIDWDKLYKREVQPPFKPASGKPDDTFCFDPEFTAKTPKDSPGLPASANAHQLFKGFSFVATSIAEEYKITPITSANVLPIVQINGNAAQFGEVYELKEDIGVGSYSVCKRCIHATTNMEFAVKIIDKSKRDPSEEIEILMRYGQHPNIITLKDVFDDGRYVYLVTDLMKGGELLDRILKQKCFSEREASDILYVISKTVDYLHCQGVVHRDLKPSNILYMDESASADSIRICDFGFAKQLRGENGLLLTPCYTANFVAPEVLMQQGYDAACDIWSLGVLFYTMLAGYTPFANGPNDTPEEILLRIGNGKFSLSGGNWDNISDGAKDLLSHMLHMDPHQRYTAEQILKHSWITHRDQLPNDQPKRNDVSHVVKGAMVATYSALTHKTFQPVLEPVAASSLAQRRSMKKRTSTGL
UniProt O75716, sequence (whole entry, looked up): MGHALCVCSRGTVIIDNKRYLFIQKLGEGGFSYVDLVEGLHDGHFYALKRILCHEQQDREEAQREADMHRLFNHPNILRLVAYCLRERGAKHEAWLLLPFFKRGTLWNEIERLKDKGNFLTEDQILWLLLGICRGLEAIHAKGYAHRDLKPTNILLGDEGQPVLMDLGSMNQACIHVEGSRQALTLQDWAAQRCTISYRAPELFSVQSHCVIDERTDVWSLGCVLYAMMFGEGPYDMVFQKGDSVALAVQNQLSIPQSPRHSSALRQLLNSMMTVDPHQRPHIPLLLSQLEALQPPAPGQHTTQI

Block 1
SMILES: COc1ccc2[nH]c3c4[nH]c5ccc(OC)cc5c4c4c(c3c2c1)C(=O)NC4=O
Observed: binding
Tested at: 1 µM
Measurement: remaining binding
target = Myosin-IIIb (MYO3B, Homo sapiens, UniProt Q8WXR4); test = competition with immobilised ligand; result = 100%
target = MAP3K9 (Homo sapiens, UniProt P80192); result = 2.2%
target = TTK (Homo sapiens, UniProt P33981); test = competition with immobilised ligand; result = 50%
target = MET (Homo sapiens, UniProt P08581, Y1235D); result = 76%
target = CDK13 (Homo sapiens, UniProt Q14004); result = 100%
target = HIPK4 (Homo sapiens, UniProt Q8NE63); test = competition with immobilised ligand; result = 70%
target = NEK11 (Homo sapiens, UniProt Q8NG66); test = competition with immobilised ligand; result = 100%
target = PRKCH (Homo sapiens, UniProt P24723); result = 35%
target = SBK1 (Homo sapiens, UniProt Q52WX2); test = competition with immobilised ligand; result = 95%
target = KIT (Homo sapiens, UniProt P10721, V559D/V654A); result = 66%
target = Ribosomal protein S6 kinase alpha-1, C-terminal kinase domain (RPS6KA1, Homo sapiens, UniProt Q15418); test = competition with immobilised ligand; result = 100%
target = FES (Homo sapiens, UniProt P07332); result = 86%

Block 2
Compound: C[C@H](c1cccc(C#N)c1)n1cc(Cl)cc(C(N)=O)c1=N
Tested at: 1 µM
Measurement: remaining binding
target = ALK (Homo sapiens, UniProt Q9UM73, C1156Y); test = cell-free assay, competition with immobilised ligand; result = 89%
target = FRK (Homo sapiens, UniProt P42685); test = cell-free assay, competition with immobilised ligand; result = 98%
target = LCK (Homo sapiens, UniProt P06239); test = cell-free assay, competition with immobilised ligand; result = 100%
target = CDKL3 (Homo sapiens, UniProt Q8IVW4); test = cell-free assay, competition with immobilised ligand; result = 88%
target = CDK2 (Homo sapiens, UniProt P24941); test = cell-free assay, competition with immobilised ligand; result = 100%
target = RET (Homo sapiens, UniProt P07949, M918T); test = cell-free assay, competition with immobilised ligand; result = 91%
target = STK35 (Homo sapiens, UniProt Q8TDR2); test = cell-free assay, competition with immobilised ligand; result = 88%
target = MAPK8 (Homo sapiens, UniProt P45983); test = cell-free assay, competition with immobilised ligand; result = 72%
target = EIF2AK2 (Homo sapiens, UniProt P19525); test = cell-free assay, competition with immobilised ligand; result = 100%
target = Aurora kinase A (AURKA, Homo sapiens, UniProt O14965); test = cell-free assay, competition with immobilised ligand; result = 97%
target = PAK2 (Homo sapiens, UniProt Q13177); test = cell-free assay, competition with immobilised ligand; result = 100%
target = BTK (Homo sapiens, UniProt Q06187); test = cell-free assay, competition with immobilised ligand; result = 91%
target = PDGFRB (Homo sapiens, UniProt P09619); test = cell-free assay, competition with immobilised ligand; result = 83%
target = WNK2 (Homo sapiens, UniProt Q9Y3S1); test = cell-free assay, competition with immobilised ligand; result = 58%
target = SYK (Homo sapiens, UniProt P43405); test = cell-free assay, competition with immobilised ligand; result = 100%
target = CDK19 (Homo sapiens, UniProt Q9BWU1); test = competition binding; result = 89%

Block 3
Cell line: A-375
Tested at: 100 µM
Time: 18 h
Measurement: viability
SMILES = CC(C)C[C@H](NC(=O)CNC(=O)c1cc(Cl)ccc1Cl)B1OC(=O)C(CC(=O)O)(CC(=O)O)O1; result = 25.3%
SMILES = Cc1cc2c(cc1S(N)(=O)=O)S(=O)(=O)CCC2; result = 75.9%
SMILES = Nc1ccc(S(=O)(=O)NC(=O)c2ccccc2)cc1; result = 97.7%
SMILES = CN(C)c1ccc(C(=C2C=CC(=[N+](C)C)C=C2)c2ccc(N(C)C)cc2)cc1; result = 34%
SMILES = O=S(=O)(O)CCSSCCS(=O)(=O)O; result = 92.5%
SMILES = Cc1nc2n(c(=O)c1CCN1CCC(c3noc4cc(F)ccc34)CC1)CCCC2O (stereo not drawn); result = 72.8%
SMILES = COc1cc2nc(N(C)CCCNC(=O)C3CCCO3)nc(N)c2cc1OC (stereo not drawn); result = 87.3%
SMILES = CN(C)CCC(c1ccc(Br)cc1)c1ccccn1 (stereo not drawn); result = 95.1%
SMILES = NC(=O)CCC(N)C(=O)O (racemic); result = 98.2%
SMILES = COC(=O)[C@@H]1CC2=CC(=O)CC[C@]2(C)[C@@]23O[C@@H]2C[C@@]2(C)[C@@H](CC[C@@]24CCC(=O)O4)[C@H]13; result = 90.8%
SMILES = C#C[C@]1(O)CC[C@H]2[C@@H]3CCc4cc(OC5CCCC5)ccc4[C@H]3CC[C@@]21C; result = 8.4%
SMILES = CC1=NN(c2ccccc2)C(=O)C1; result = 90.7%
SMILES = CO[C@@]1(NC(=O)CSCC#N)C(=O)N2C(C(=O)O)=C(CSc3nnnn3C)CS[C@@H]21; result = 96.5%

Block 4
Compound: Fc1ccc(-c2nc3n(c2-c2ccncc2)CCS3)cc1
Observed: enzyme activity
Action: inhibitor
Tested at: 0.5 µM
Reference: control
Measurement: remaining activity
target = STK16 (Homo sapiens, UniProt O75716); result = 106%
target = HIPK2 (Homo sapiens, UniProt Q9H2X6); result = 99.2%
target = MAPKAPK3 (Homo sapiens, UniProt Q16644); result = 95.5%
target = TSSK2 (Homo sapiens, UniProt Q96PF2); result = 93.2%
target = Cyclin-dependent kinase 6, with cyclin D3 (CDK6, Homo sapiens, UniProt Q00534); result = 108%
target = PRKACG (Homo sapiens, UniProt P22612); result = 116%
target = Cyclin-dependent kinase 1, with cyclin B (CDK1, Homo sapiens, UniProt P06493); result = 91.4%
target = HIPK4 (Homo sapiens, UniProt Q8NE63); result = 89.7%
target = SRMS (Homo sapiens, UniProt Q9H3Y6); result = 102%
target = RPS6KA6 (Homo sapiens, UniProt Q9UK32); result = 115%
target = AXL (Homo sapiens, UniProt P30530); result = 95.8%
target = PDPK1 (Homo sapiens, UniProt O15530); result = 109%
target = MAP4K4 (Homo sapiens, UniProt O95819); result = 72.3%
target = WNK3 (Homo sapiens, UniProt Q9BYP7); result = 105%
target = DYRK3 (Homo sapiens, UniProt O43781); result = 103%
target = PHKG1 (Homo sapiens, UniProt Q16816); result = 94.6%
target = Cyclin-dependent kinase 4, with cyclin D3 (CDK4, Homo sapiens, UniProt P11802); result = 94.9%
target = EPHB4 (Homo sapiens, UniProt P54760); result = 88%
target = CAMK2B (Homo sapiens, UniProt Q13554); result = 90%
target = EPHA4 (Homo sapiens, UniProt P54764); result = 106%
target = EPHB1 (Homo sapiens, UniProt P54762); result = 106%
target = STK17A (Homo sapiens, UniProt Q9UEE5); result = 99.4%
